# Assay results collected from several papers.
# Amino acid sequences for entries named in this document (tags omitted). A change or cut given only in a name is not applied to a line headed by its entry. Residues count along the entry.
# UniProt P30419, whole entry: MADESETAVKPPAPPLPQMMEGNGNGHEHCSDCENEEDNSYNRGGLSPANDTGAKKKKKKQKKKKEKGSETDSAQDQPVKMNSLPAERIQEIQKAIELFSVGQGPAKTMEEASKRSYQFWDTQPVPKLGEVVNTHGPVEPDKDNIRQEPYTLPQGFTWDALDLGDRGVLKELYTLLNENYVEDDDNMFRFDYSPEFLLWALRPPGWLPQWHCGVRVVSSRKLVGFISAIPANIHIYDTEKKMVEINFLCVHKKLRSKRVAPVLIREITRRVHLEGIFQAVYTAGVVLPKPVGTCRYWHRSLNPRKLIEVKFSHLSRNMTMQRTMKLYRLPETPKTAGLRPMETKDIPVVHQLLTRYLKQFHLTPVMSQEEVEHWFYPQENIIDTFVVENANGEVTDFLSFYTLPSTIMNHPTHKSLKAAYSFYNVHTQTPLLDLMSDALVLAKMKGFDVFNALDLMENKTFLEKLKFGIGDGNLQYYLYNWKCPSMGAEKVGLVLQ
# UniProt P04150, whole entry: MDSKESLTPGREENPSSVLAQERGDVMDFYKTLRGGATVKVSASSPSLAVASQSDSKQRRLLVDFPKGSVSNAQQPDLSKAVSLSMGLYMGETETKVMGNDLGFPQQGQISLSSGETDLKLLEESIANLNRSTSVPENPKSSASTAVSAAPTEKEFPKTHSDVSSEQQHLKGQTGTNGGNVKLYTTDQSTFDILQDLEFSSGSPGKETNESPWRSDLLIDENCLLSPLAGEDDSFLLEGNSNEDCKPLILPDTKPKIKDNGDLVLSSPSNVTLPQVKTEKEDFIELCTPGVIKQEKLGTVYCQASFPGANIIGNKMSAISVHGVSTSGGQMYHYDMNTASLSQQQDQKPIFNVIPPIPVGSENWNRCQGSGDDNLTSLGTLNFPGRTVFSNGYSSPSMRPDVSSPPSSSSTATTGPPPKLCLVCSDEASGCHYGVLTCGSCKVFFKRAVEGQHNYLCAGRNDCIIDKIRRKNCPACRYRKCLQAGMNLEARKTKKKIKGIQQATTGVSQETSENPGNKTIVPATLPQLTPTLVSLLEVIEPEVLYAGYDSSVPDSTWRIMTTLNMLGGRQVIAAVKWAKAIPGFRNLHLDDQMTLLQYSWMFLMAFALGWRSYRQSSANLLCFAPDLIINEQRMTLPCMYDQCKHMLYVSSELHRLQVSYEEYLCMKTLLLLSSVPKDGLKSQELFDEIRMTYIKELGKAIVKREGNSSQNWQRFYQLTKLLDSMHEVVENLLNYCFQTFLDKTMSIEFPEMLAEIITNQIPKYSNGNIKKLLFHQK
# UniProt P41148, 22-804 limits assumed: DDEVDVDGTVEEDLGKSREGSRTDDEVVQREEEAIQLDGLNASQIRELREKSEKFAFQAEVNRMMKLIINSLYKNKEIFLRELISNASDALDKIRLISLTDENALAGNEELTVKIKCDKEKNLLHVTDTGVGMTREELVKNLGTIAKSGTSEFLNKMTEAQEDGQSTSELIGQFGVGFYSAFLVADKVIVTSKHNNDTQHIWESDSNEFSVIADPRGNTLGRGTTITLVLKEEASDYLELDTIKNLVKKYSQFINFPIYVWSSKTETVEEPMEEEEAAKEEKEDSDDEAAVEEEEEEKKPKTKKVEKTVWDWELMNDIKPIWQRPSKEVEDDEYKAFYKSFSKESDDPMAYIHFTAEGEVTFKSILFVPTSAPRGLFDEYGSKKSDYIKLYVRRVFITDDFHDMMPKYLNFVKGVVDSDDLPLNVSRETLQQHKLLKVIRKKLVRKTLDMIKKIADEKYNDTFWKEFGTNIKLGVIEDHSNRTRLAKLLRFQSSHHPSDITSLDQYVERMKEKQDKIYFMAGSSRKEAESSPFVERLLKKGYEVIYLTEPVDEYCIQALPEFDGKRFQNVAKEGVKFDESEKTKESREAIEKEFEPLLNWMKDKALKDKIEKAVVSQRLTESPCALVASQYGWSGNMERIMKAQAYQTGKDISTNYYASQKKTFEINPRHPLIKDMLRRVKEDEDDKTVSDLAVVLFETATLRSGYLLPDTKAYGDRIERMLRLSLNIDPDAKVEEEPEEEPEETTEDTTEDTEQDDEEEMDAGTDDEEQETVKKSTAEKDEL
# UniProt P26040, whole entry: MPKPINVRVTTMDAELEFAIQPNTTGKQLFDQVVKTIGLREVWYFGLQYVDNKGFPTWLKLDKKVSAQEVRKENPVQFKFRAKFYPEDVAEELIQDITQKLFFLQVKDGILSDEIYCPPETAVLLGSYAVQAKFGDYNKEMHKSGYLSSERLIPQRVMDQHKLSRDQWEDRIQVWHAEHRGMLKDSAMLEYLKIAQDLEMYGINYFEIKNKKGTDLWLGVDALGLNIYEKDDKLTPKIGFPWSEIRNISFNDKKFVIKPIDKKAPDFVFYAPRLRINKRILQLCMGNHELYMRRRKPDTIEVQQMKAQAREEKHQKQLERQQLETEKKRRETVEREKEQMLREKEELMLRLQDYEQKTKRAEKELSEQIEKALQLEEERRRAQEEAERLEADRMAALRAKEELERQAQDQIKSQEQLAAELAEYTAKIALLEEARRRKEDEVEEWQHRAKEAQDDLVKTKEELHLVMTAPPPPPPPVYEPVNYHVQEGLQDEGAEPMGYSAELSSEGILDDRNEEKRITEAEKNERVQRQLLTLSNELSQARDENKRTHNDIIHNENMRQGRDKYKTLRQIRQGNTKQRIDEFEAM
# UniProt P07948, whole entry: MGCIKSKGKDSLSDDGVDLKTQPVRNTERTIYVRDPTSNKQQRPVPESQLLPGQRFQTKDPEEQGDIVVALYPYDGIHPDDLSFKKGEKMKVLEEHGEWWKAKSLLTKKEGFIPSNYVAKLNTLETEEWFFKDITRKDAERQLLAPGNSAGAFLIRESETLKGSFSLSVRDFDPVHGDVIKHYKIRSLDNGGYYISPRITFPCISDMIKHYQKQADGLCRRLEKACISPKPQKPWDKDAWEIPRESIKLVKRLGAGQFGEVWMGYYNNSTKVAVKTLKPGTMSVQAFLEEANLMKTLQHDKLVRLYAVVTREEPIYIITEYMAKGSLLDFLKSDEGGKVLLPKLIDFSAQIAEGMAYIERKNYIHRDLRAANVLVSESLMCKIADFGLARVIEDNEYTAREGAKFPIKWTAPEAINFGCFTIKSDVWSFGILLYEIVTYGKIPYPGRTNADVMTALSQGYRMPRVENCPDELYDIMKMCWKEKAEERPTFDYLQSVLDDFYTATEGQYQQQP
# UniProt O14920, whole entry: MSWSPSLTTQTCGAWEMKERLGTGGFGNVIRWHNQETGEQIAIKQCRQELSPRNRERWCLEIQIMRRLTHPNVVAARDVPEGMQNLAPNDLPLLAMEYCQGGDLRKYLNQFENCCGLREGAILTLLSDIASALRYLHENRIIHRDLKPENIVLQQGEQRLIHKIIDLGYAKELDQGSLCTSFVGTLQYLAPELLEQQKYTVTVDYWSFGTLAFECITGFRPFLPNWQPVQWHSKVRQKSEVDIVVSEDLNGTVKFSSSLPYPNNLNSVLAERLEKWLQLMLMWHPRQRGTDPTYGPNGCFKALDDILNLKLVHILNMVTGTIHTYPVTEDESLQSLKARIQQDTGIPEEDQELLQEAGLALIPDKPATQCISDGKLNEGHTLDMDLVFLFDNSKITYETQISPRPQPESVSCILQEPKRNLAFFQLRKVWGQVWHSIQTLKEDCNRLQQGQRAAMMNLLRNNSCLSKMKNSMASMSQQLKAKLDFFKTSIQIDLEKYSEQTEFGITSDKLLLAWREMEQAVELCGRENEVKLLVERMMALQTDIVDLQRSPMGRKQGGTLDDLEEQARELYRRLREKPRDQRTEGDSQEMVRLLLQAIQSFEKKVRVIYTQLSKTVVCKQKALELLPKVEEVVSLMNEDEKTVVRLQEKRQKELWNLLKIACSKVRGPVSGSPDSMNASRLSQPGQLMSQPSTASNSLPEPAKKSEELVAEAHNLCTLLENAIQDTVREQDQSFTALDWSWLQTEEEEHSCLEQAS
# UniProt P00533, 25-1210 T790M/L858R limits assumed: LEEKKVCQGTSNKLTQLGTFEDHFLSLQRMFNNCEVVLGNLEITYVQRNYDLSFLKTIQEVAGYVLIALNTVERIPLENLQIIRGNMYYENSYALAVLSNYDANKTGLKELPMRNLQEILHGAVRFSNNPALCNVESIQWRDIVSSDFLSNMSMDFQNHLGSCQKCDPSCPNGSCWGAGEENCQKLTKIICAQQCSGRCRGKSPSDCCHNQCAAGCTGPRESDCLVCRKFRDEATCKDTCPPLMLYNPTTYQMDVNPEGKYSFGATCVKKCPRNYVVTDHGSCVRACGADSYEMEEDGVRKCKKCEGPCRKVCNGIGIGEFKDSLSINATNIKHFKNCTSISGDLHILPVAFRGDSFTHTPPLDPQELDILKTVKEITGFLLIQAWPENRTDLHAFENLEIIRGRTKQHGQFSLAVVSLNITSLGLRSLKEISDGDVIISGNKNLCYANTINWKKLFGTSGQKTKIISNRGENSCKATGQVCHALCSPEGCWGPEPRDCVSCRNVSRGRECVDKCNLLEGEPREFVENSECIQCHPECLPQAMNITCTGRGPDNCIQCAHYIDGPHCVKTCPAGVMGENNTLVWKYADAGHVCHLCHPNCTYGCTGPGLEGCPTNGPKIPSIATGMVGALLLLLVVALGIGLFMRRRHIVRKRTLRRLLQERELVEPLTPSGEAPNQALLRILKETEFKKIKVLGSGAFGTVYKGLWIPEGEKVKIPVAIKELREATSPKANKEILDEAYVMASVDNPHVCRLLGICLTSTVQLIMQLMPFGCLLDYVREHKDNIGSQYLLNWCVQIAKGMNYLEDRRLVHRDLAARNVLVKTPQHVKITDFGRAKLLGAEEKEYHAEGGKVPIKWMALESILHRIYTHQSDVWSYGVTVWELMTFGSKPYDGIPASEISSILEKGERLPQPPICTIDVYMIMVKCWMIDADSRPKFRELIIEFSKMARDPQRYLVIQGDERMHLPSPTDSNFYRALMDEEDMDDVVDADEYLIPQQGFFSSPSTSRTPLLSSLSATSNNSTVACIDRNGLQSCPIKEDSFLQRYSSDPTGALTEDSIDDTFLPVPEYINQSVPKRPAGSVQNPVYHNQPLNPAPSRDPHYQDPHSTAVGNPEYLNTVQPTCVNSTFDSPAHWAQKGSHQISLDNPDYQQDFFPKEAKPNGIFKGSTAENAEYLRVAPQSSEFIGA
# UniProt Q99720, whole entry: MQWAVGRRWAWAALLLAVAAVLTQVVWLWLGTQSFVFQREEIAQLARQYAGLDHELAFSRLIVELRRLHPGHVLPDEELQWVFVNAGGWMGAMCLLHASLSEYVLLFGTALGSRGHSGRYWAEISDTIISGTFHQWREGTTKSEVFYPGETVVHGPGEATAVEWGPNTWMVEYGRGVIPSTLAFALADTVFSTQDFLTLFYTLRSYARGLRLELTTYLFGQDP
# UniProt P03372, whole entry: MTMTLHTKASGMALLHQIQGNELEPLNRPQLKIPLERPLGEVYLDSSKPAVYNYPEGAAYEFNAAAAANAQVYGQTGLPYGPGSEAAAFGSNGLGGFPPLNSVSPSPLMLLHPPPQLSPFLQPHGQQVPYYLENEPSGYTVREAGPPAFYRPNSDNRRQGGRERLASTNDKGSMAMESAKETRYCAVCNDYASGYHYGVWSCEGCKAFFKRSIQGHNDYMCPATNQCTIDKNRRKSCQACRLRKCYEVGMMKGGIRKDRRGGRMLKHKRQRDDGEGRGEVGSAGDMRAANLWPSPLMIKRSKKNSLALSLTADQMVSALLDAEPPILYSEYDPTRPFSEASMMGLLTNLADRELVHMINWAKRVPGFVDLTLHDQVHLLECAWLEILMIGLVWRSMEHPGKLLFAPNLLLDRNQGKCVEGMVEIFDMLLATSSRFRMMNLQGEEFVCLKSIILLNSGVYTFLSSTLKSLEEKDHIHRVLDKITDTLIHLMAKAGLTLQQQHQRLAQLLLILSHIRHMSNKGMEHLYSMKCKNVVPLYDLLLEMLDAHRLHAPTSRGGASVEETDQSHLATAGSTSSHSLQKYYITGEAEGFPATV
# UniProt O35453, 1-416 isoform 2: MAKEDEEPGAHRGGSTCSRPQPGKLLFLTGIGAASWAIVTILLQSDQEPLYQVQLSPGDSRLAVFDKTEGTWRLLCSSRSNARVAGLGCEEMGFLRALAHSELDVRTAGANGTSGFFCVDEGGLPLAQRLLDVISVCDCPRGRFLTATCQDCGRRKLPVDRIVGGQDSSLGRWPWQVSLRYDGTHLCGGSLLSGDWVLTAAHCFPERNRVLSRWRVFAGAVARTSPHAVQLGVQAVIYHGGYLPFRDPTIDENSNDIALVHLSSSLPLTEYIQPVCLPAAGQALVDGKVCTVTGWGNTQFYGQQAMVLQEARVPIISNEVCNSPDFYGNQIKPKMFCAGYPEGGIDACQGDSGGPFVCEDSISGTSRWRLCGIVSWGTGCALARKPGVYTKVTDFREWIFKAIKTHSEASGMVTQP
# Each line is one published result; not all experiments were run side by side. ± gives the spread as reported.
# NMT1: Glycylpeptide N-tetradecanoyltransferase 1 (NMT1, Homo sapiens, UniProt P30419)
# NR3C1: Glucocorticoid receptor (NR3C1, Homo sapiens, UniProt P04150)
SMILES,target,assay,test system,conditions,scale,measurement,value
COC(=O)c1c(O)cc(O)c(Cl)c1CCc1cc(OC)ccc1Cc1ccccc1,"Endoplasmin (HSP90B1, Canis lupus familiaris, UniProt P41148)",fluorescence polarization,,added: FITC-geldanamycin tracer,baseline: Grp94 over Hsp90α,selectivity ratio,5 fold
Cc1cc(C)c(CNC(=O)c2cc(-c3ccc(N4CCN(CCNC(=O)CC56CC7CC(CC(C7)C5)C6)CC4)nc3)cc3c2cnn3C(C)C)c(=O)[nH]1,"ADRA1A (Homo sapiens, UniProt P35348)",radioligand binding,,10 µM,,inhibition,50%
O=C1C=C(NCCc2cc(Br)c(O)c(Br)c2)C(=O)c2ncccc21,"Ezrin (Ezr, Mus musculus, UniProt P26040)",item: ezrin,K7M2,"10 µM, 6 h",,actin binding,inhibited
CCN1CCN(Cc2ccc(NC(=O)c3ccc(C)c(Oc4ncnc5cc(OC)c(OC)cc45)c3)cc2C(F)(F)F)CC1,"LYN (Homo sapiens, UniProt P07948)",KINOMEscan competition binding,,1.0 µM,,residual probe binding,1%
N[C@H]1C=C(C(=O)O)CCC1(F)F,"OAT (Homo sapiens, UniProt P04181)","enzyme inactivation, mechanism-based inactivator",,,,KI,2300 ± 700 nM
CC[C@H](C)[C@H]1O[C@]2(CC[C@@H]1C)C[C@@H]1C[C@@H](C/C=C(\C)[C@@H](O[C@H]3C[C@H](OC)[C@@H](O[C@H]4C[C@H](OC)[C@@H](O)[C@H](C)O4)[C@H](C)O3)[C@@H](C)/C=C/C=C3\CO[C@@H]4[C@H](O)C(C)=C[C@@H](C(=O)O1)[C@]34O)O2,"Nuclear receptor subfamily 2 group C member 2 (Homo sapiens, UniProt P49116)",SPR imaging,immobilized compound microarray,added: TR4-LBD 600 nM analyte,,kon,9150 M⁻¹ s⁻¹
O=C(/C=C/c1nc2ccccc2[nH]1)c1c(-c2ccccc2)c2cc(Cl)ccc2[nH]c1=O,"IKBKB (Homo sapiens, UniProt O14920)",SelectScreen profiling,,"concentration not given, panel of 100 kinases",,kinase inhibition,inhibited
CC(C)[C@H](NC(=O)[C@H](CS)NC(=O)CN)C(=O)N[C@@H](CCC(N)=O)C(=O)N[C@@H](CS)C(=O)N[C@@H](CCCCN)C(=O)N[C@@H](CC(=O)O)C(=O)N[C@@H](CCCCN)C(=O)O,NMT1,substrate,,,,Km,5.2 µM
O=C1CCC(N2C(=O)c3cccc(NCCOCCOCCOCCN4CCN(c5ccc(-c6ccc7c(c6)C(=O)N(C(C(=O)Nc6nccs6)c6ccccc6)C7)cn5)CC4)c3C2=O)C(=O)N1 (centres unmarked),"EGFR (Homo sapiens, UniProt P00533, L858R/T790M)","degrader, Western blot",Ba/F3 EGFR L858R/T790M,"0.1 µM, 24 h",,Dmax,59 to 62%
C[C@H](NC(=O)[C@H](CC(N)=O)NC(=O)CN)C(=O)N[C@@H](CCC(N)=O)C(=O)N[C@@H](CCC(=O)O)C(=O)N[C@@H](CCCNC(=N)N)C(=O)N1CCC[C@H]1C(=O)N[C@@H](CO)C(=O)O,NMT1,substrate,,,,Km,1.4 µM
Cn1cc2c(nc(NCCCNC(=S)Nc3ccc(-c4c5ccc(=O)cc-5oc5cc(O)ccc45)c(C(=O)O)c3)n3nc(-c4ccco4)nc23)n1,"ADORA1 (Homo sapiens, UniProt P30542)",binding,CHO,"10 µM, added: [3H]R-PIA",,inhibition,5 ± 2%
CN1CCC[C@H](C(=O)OCC(=O)[C@]2(O)CC[C@@H]3[C@H]4CCC5=CC(=O)CC[C@@]5(C)[C@H]4[C@@H](O)C[C@]32C)C1,NR3C1,"nuclear translocation, agonist, enzyme fragment complementation",,,,Hill slope,1.26
"CC1=Cc2ccccc2C12CCN(C1Cc3ccccc3CC1O)CC2 (single isomer, unassigned)","SIGMAR1 (Homo sapiens, UniProt Q99720)",,,,baseline: Ki sigma2 (rat liver) over Ki sigma1 (human),selectivity ratio,10
COc1cc(CC(=O)NCC(NC(=O)C(CCCNC(=O)c2cccc(I)c2)NC(=O)C(Cc2ccc(C(F)(F)P(=O)(O)O)cc2)NC(=O)c2ccc(C)c(Br)c2)C(N)=O)ccc1O (centres unmarked),"Receptor-type tyrosine-protein phosphatase beta (Homo sapiens, UniProt P23467)",enzyme activity,,10 µM,,inhibition,no inhibition
C[C@H](NC(=O)[C@@H](NC(=O)[C@H](CCCCN)NC(=O)[C@H](CO)NC(=O)[C@H](Cc1ccccc1)NC(=O)[C@H](CCC(N)=O)NC(=O)[C@H](C)NC(=O)CN)[C@@H](C)O)C(=O)O,NMT1,substrate,,,,Km,38.4 µM
C[C@@]12CCC(=O)C=C1CC[C@H]1C2[C@@H](O)C[C@]2(C)[C@@H]1CC[C@@]2(O)C(=O)COC(=O)C1CCCC1 (some centres unmarked),NR3C1,"nuclear translocation, agonist, enzyme fragment complementation",,,,maximal activity,100%
CC[C@@H]1C(=O)N(C)c2cnc(Nc3ccc(C(=O)NC4CCN(C)CC4)cc3OC)nc2N1C1CCCC1,"KAT2A (Homo sapiens, UniProt Q92830)",,,10 µM,,delta Tm,-0.31 ± 0.53 °C
CCN1CCN(Cc2ccc(Nc3ncc4c(n3)N(C)c3c(F)cccc3C(=O)N4C)cc2C(F)(F)F)CC1,"Aurora kinase A (AURKA, Homo sapiens, UniProt O14965)","kinase activity, Z-LYTE",,,baseline: IC50 Aurora B over Aurora A,selectivity ratio,36 fold
"O=C(Nc1ccc(Cl)cc1)C(NS(=O)(=O)c1cccs1)c1ccccc1 (single isomer, unassigned)","FGFR1 (Homo sapiens, UniProt P11362)","functional response, PathHunter",U2OS,"concentration not given, counter-screen",,activity,inactive
O=c1c(O[C@@H]2O[C@H](CO)[C@@H](O)[C@H](O)[C@H]2O)c(-c2cc(O)c(O[C@@H]3O[C@H](CO)[C@@H](O)[C@H](O)[C@H]3O)c(O)c2)oc2cc(O)cc(O)c12,"Estrogen receptor (ESR1, Homo sapiens, UniProt P03372)","DNA binding array formation, PRL-HeLa cells",,,baseline: EC50 ERβ over EC50 ERα,selectivity ratio,1.17
O=[N+]([O-])c1ccc(C2Nc3c(cccc3C(F)(F)F)C3C=CCC32)cc1 (centres unmarked),"Serine protease hepsin (Hpn, Mus musculus, UniProt O35453)",hepsin activity,,50 µM,baseline: vehicle,inhibition of pericellular proteolysis,~60%
Fc1cccc(-n2cnc3c(NCc4nc5cc(Cl)ccc5[nH]4)nc(N4CCNCC4)nc32)c1,"SGK1 (Homo sapiens, UniProt O00141)",KINOMEscan competition binding,,10 µM,baseline: control,remaining binding,1%
CC[C@H](C)[C@H](NC(=O)[C@H](CCCCN)NC(=O)[C@H](CO)NC(=O)[C@H](CC(C)C)NC(=O)[C@@H](NC(=O)[C@H](CCCCN)NC(=O)CN)C(C)C)C(=O)N[C@@H](Cc1ccccc1)C(=O)O,NMT1,substrate,,,,Km,4.4 µM
Fc1cc(-c2ccc3c(n2)[nH]c2ccncc23)ccn1 [isotope labelled],"Microtubule-associated protein tau, paired helical filaments (MAPT, Homo sapiens, UniProt P10636)",radioligand binding,PHF tau brain homogenate,13.55 nM,higher = more binding,specific binding,9.89 a.u.
CC[C@H](C)[C@H](NC(=O)[C@@H](NC(=O)[C@H](CC(C)C)NC(=O)[C@H](CC(C)C)NC(=O)CN)[C@@H](C)O)C(=O)N[C@@H](CC(C)C)C(=O)N[C@@H](CCCCN)C(=O)N[C@@H](CCCCN)C(=O)O,NMT1,substrate,,,,Km,0.4 µM
C[C@]1(c2ccccc2)O[C@@H]2C[C@@H]3[C@@H]4CCC5=CC(=O)C=C[C@@]5(C)[C@]4(F)[C@H](O)C[C@]3(C)[C@@]2(C(=O)CO)O1,NR3C1,"nuclear translocation, agonist, enzyme fragment complementation",,,,Hill slope,0.79
